Results pooled from the literature.
Each numbered part is a random draw from the data of one study; scales do not carry over between parts.

Series 1
Target: Sal-like protein 4, full length isoform A (SALL4, Homo sapiens, UniProt Q9UJQ4, residues 1-1053)
UniProt Q9UJQ4, sequence (whole entry, looked up): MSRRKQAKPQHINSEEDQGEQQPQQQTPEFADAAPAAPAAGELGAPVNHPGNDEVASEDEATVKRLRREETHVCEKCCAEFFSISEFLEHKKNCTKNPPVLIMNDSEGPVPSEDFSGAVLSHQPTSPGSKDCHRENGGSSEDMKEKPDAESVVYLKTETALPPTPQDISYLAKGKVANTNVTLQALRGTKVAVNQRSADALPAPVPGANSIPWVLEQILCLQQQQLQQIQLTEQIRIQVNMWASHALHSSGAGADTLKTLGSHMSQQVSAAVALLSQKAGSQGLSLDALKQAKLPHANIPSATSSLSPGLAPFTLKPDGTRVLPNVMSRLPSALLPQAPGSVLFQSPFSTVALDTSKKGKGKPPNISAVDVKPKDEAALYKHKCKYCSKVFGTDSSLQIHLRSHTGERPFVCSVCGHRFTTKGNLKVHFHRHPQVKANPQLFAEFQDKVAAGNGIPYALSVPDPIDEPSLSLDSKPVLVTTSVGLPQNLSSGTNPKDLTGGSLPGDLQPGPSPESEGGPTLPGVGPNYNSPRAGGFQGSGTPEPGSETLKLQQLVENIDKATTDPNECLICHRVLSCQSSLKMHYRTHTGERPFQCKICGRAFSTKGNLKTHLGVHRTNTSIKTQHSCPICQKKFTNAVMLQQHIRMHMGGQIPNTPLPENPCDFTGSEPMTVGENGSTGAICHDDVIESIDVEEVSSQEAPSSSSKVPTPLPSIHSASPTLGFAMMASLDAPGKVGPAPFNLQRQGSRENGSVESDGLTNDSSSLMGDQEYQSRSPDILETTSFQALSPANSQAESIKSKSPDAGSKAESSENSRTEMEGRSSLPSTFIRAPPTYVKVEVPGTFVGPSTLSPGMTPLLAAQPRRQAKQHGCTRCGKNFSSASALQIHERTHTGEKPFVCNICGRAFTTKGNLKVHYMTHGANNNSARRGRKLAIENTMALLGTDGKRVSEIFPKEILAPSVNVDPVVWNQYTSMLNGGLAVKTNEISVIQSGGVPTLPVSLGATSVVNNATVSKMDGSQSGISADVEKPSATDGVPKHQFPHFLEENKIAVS
Technique: universal PBM
Form: double-stranded DNA, one strand shown
Matrix: in vitro
Tested at: 600 nM
Setting: 8-mer, flanks averaged, mean of replicates
Direction: higher = stronger binding
Quantity: E-score
Oligonucleotide = GAACGCGA; result = -0.141
Oligonucleotide = CCGCAGCC; result = -0.266
Oligonucleotide = CATGTAAG; result = 0.117
Oligonucleotide = CCTATGAC; result = 0.0912
Oligonucleotide = AAACCCGC; result = -0.241
Oligonucleotide = ATGACTGA; result = 0.145
Oligonucleotide = CAAACTGC; result = -0.0524
Oligonucleotide = ATAAGCAT; result = 0.239
Oligonucleotide = AGATGTAA; result = 0.283
Oligonucleotide = ACTAAGAG; result = -0.0382
Oligonucleotide = GCATGATA; result = 0.284
Oligonucleotide = CCTCATGC; result = -0.155
Oligonucleotide = AATTGAGG; result = 0.0119
Oligonucleotide = TAGAACCA; result = 0.109
Oligonucleotide = CCTCTTTC; result = -0.141
Oligonucleotide = GCGCTGCC; result = -0.34

Series 2
Target: RNA binding protein fox-1 homolog 2, RRM domain, GST-SBP tag (RBFOX2, Homo sapiens, UniProt O43251-10, residues 100-194)
Technique: RNA Bind-n-Seq
Form: RNA
Matrix: in vitro
Tested at: 365 nM
Setting: natural RNA segment, single round, ends assumed
Baseline: no-protein control
Direction: higher = stronger binding
Quantity: RBNS enrichment (R)
Construct (chain): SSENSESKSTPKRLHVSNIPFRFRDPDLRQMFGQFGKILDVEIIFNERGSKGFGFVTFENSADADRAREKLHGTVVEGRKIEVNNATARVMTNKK
Oligonucleotide = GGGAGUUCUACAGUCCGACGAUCUGACUUGGACCCACCAAGGCUUCUGAGCACACACAUCCAUGUGGCCGAGGUUUCUAGUGCUUCAUAGUGGCUCUUGUUCUGAGUUCUGUCCUGAGCCUCUUGUUACCUUGUGGAAUUCUCGGGUGCCAA; result = 0.279
Oligonucleotide = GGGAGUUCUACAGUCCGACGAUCCUCACUAUGCUAGGAAUAGACUGUGUGCACCAGUCCCAGACACUUGGCAGAAGUGUAGCAGCGUUACACAUGUGUGCGAAGCAGAUCGCAGGUUCCACGCCAUCUGCAUGUGGAAUUCUCGGGUGCCAA; result = 0.609
Oligonucleotide = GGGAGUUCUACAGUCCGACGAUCUUAAUUCAGUUUUAACCAGUGAAAACUCGUGGUUUUUCUGAAAGAAAAAAGAAAAGGGUUUCCUAUCUGGUAUUAUAUAUGUCAAAUAAAUGUAUAAAGUAACACCCAAAUGGAAUUCUCGGGUGCCAA; result = 0.636
Oligonucleotide = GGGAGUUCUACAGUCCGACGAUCCUCCAAAGAUAUUUGCACUGCUUUUAAUUAUUGCUGUGUAUCUAUUUCUUUGGGUAUUAUAACUGUGGUAAUAGAAACUUGAUUUAAUGGUCUGUACCAAGUCCCUAUUCUGGAAUUCUCGGGUGCCAA; result = 0.485
Oligonucleotide = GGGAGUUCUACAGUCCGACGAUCCUCCGUCUUGGCCAUGUCUAGUAAUUGCUAUGUGUUGGGAGAAACUUUGUGAAUGCACCAUUUUGAUGAUCAUGAAACGCUGAUGAAAAAUGCCUCCAAACAUUUUUCUGUGGAAUUCUCGGGUGCCAA; result = 0.59
Oligonucleotide = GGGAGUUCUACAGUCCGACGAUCAUCCUUCAGAAUUACUUGUAGGAUAUUCCUCUCUUCAUGUUCUAAUAAACUUCUACAUCAUCAUCAAUGGCCUUGUUGCUGCUGAACACAAUGGGGAAGUGUUUGCUGAGUGGAAUUCUCGGGUGCCAA; result = 0.377
Oligonucleotide = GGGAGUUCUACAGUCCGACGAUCGCACAUGCCAAGGAAGACCCCCUCCUGACCCCUGUUCCGGCUUCAGAAAACCCGUUUAGGGAGAAGAAGUUUUUCUGUGCCAUCCUUUAAGUCUUUGAGAGGGGCCUGAAUGGAAUUCUCGGGUGCCAA; result = 1
Oligonucleotide = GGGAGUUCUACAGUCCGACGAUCAAAAAGUGGAGUCCUAUGUACCAGACUGAGUUUUUACAAAUGAUUUGCAGGCUAGACAUAACCCACUGAUGGAAAUGGUGAAGAAUGAGCUUCAUGUAGGUUUAAAAGUGUGGAAUUCUCGGGUGCCAA; result = 0.587

Series 3
Target: Phosphate system positive regulatory protein PHO4, full length, GST-tagged (PHO4, Saccharomyces cerevisiae, UniProt P07270, residues 1-312)
Technique: competition protein-binding microarray
Form: double-stranded DNA, one strand shown
Matrix: in vitro
Tested at: 2 µM
Setting: whole 60-bp probe, lowest competitor level
Added: Cbf1 competitor, 0.05 µM
Direction: higher = stronger binding
Quantity: fluorescence intensity
Residues (chain): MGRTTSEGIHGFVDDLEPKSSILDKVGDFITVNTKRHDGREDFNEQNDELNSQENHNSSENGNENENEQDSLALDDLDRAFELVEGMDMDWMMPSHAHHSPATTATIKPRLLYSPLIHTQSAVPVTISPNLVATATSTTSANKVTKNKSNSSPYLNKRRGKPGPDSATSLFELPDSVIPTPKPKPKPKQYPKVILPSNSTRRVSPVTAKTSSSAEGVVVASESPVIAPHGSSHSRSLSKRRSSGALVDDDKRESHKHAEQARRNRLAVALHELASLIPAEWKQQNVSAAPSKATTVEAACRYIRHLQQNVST
Oligonucleotide = TTTCATCACTATTTGCACGCTCTTTCCAAAGCTCCTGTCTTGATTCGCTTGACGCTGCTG; result = 7700 a.u.
Oligonucleotide = CGGGGTTAAGTTTGGAGGGTGGGTGGCTTGCAGCAGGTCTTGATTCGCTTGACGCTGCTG; result = 5240 a.u.
Oligonucleotide = AAAAAAGACGTAAAGCACGTGAAATAAGGAGATTACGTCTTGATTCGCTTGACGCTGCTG; result = 14700 a.u.
Oligonucleotide = CATTCACTATTTTGTCATGTGACGGAATGCCCCAAAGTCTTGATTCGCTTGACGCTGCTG; result = 7240 a.u.
Oligonucleotide = CTTTCCCGATCTTGACCCGTGGGTGTAGCACATTTGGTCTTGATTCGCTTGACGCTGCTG; result = 11300 a.u.
Oligonucleotide = CACTTCATACATGGCTACGTGGGTAACAAGGCCGCTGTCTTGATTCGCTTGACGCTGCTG; result = 7980 a.u.
Oligonucleotide = ACCGCTGAAACCAAACATGTGATGAATTGGTCAACAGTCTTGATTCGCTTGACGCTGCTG; result = 9670 a.u.
Oligonucleotide = AATTTAACGTCGTATCACCTGCCATAACCGAGCAAGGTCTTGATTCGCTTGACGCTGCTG; result = 4770 a.u.
Oligonucleotide = TGTTGAGTTACACCCCGCGTGCTAAAAAAGGGGTGAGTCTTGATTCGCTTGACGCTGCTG; result = 11200 a.u.
Oligonucleotide = CGGGGTTAAGTTTGGCCAGTGGGTGGCTTGCAGCAGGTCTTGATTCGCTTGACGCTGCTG; result = 4480 a.u.
Oligonucleotide = CTTCTGTAAATTTGTACAGTGGGTGGACGCGCCCCGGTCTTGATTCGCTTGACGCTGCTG; result = 3770 a.u.
Oligonucleotide = TGCGCAACAACTTTTCACGTGCCTTTATGTCTAGAAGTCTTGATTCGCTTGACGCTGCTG; result = 17200 a.u.
Oligonucleotide = TGAAGTGGGAAGGAAGCATTTAGTTCGTGTAGGCTGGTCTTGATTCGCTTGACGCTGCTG; result = 4620 a.u.
Oligonucleotide = AAATTACTAAGTTGTTGTGTGGGTGACGCCGTATGAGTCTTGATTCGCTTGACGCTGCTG; result = 4820 a.u.
Oligonucleotide = GCCAGCCACATTCACCACGGGTGCCGGTACTTCCAAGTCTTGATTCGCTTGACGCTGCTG; result = 6690 a.u.

Series 4
Target: Interferon regulatory factor 5, full length, phosphomimetic (IRF5, Homo sapiens, UniProt Q13568-2, residues 1-514, S451D/S453D/S456D/S462D)
Technique: protein-binding microarray
Form: double-stranded DNA, one strand shown
Matrix: in vitro
Tested at: 940 nM top
Setting: 60-bp whole probe
Added: salmon DNA 0.4 mg/ml
Baseline: random background probes
Direction: higher = stronger binding
Quantity: fitted relative affinity
Constant ends, left off below: GCCTAGCAC … GTCTTGATTCGCTTGACGCTGCTG
Oligonucleotide = GACGGCCTGGGTCTCGGGACGTGCTAG; result = -0.165 z-score
Oligonucleotide = GTCGGACTGGGACTGGGGACGTGCTAG; result = -0.554 z-score
Oligonucleotide = GACGGTATCGGTCCCGGGACGTGCTAG; result = 8.25 z-score
Oligonucleotide = TTAGGTATCGGGTTTCGTTTAGTGCTA; result = 6.61 z-score
Oligonucleotide = GACGGACTGCTTCTGCTGACGTGCTAG; result = -0.618 z-score
Oligonucleotide = GACCATCTCATATAAATAGGCGTGCTA; result = 0.538 z-score
Oligonucleotide = AAACAAGTTTCACGTCTTATAGTGCTA; result = 1.84 z-score
Oligonucleotide = AACGATATCGGGTATCGAGACGTGCTA; result = 1.23 z-score
Oligonucleotide = CTCTGTCCCCCTTTTATATTGTGCTAG; result = 0.625 z-score
Oligonucleotide = TTAGATTCCAATTTCGATTAGTGCTAG; result = 1.36 z-score
Oligonucleotide = TCATTTCTGTTTTTGCTACTGTGCTAG; result = 1.87 z-score
Oligonucleotide = GACCATATCAGACTGGAGACGTGCTAG; result = -0.0888 z-score

Excerpt of the above (series 3):
Oligonucleotide = CATTCACTATTTTGTCATGTGACGGAATGCCCCAAAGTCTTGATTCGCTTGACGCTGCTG; result = 7240 a.u.
Oligonucleotide = AAAAAAGACGTAAAGCACGTGAAATAAGGAGATTACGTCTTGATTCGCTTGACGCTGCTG; result = 14700 a.u.
Oligonucleotide = CACTTCATACATGGCTACGTGGGTAACAAGGCCGCTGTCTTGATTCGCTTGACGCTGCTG; result = 7980 a.u.
Oligonucleotide = ACCGCTGAAACCAAACATGTGATGAATTGGTCAACAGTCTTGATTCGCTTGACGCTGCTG; result = 9670 a.u.
Oligonucleotide = TGAAGTGGGAAGGAAGCATTTAGTTCGTGTAGGCTGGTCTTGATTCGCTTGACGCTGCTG; result = 4620 a.u.
Oligonucleotide = TTTCATCACTATTTGCACGCTCTTTCCAAAGCTCCTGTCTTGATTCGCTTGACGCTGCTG; result = 7700 a.u.
Oligonucleotide = AAATTACTAAGTTGTTGTGTGGGTGACGCCGTATGAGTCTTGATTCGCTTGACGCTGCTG; result = 4820 a.u.
Oligonucleotide = CTTCTGTAAATTTGTACAGTGGGTGGACGCGCCCCGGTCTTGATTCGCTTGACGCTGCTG; result = 3770 a.u.
